Experimental data of several laboratories.
Parts stem from different laboratories: compare values within a part only. Several values in a cell are separate wells, animals, samples, runs or records.
Chain of UniProt P62344 (whole entry, looked up): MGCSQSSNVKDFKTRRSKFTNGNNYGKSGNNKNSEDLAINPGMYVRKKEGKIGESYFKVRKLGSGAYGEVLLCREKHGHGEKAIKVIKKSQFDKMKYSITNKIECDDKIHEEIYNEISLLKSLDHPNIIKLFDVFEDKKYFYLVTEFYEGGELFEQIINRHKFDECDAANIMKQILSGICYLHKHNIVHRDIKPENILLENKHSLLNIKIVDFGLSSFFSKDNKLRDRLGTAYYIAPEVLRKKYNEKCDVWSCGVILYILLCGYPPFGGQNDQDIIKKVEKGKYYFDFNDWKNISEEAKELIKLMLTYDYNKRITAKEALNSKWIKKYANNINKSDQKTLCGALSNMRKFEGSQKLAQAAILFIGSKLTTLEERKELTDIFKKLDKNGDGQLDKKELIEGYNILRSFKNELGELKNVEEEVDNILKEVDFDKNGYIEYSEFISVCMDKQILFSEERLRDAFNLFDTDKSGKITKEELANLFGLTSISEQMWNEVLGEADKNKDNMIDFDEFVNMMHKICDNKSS
Chain of UniProt P61075 (whole entry, looked up): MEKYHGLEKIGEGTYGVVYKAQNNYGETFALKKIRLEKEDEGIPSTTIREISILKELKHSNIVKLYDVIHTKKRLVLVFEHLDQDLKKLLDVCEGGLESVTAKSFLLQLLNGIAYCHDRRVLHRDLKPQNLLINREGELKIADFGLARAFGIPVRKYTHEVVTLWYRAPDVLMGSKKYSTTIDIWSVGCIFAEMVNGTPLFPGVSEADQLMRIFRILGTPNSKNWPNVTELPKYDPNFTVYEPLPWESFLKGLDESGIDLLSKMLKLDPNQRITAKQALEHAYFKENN

Series 1
SMILES: CC(C)S(=O)(=O)c1ccc2nccc(Nc3ccc4sc(C5CCCC5)nc4c3)c2c1.Cl
The viability was 112% and 101% and 102% and 96.9% (L929; CCK-8; 3.125 µM, together with: zVAD).
The viability was 96% and 96.9% and 104% and 102% (L929 RIPK3 knockout; 0.781 µM).
It gave 103% and 97.8% and 101% and 105% and 97% for viability (L929 RIPK3 knockout; 6.25 µM).
It gave 97.6% and 105% and 96.9% and 97.9% for viability (L929; CCK-8; 1.563 µM, together with: zVAD).
L929; CCK-8; 50 µM, together with: zVAD — viability: 55.6% and 53.7% and 57.1% and 57.2% and 55.3%.
L929; CCK-8; 50 µM — viability: 54.2% and 54.3% and 55.5% and 54.5%.
L929 RIPK3 knockout; 0.781 µM, together with: zVAD — viability: 102% and 101%.
L929 RIPK3 knockout; 50 µM, together with: zVAD — viability: 64.2% and 62.8% and 63.5% and 62.1% and 66.7%.
L929 RIPK3 knockout; 6.25 µM, together with: zVAD — viability: 102% and 104% and 105%.

Series 2
Target: Dual specificity tyrosine-phosphorylation-regulated kinase 1B (DYRK1B, Homo sapiens, UniProt Q9Y463)
Effect on: enzyme activity
Mode: inhibitor
Method: radiometric
Tested at: 0.5 µM
For `N#CCCc1ccc2c(c1)-c1[nH]c3ccc([N+](=O)[O-])cc3c1CC(=O)N2`, the remaining activity was 76.8%.
`Nc1ccc2ncnc(NCCc3ccc(Oc4ccccc4)cc3)c2c1` has a remaining activity of 104%.
For `N#CC(C#N)=C(N)/C(C#N)=C/c1ccc(O)cc1`, the remaining activity was 101%.
With `C#Cc1cccc(Nc2ncnc3cc(OCCOC)c(OCCOC)cc23)c1` the remaining activity was 93.7%.
For `CCOC(=O)c1c(C)[nH]c(/C=C2\C(=O)Nc3ccccc32)c1C`, the remaining activity was 105%.
`O=C1NC(=O)c2cc(Nc3ccc(F)cc3)c(Nc3ccc(F)cc3)cc21` gave a remaining activity of 105%.

Series 3
Species: mouse
Medium: microsomes or S9
Tested at: 2 µM
Time: 0.5 h
For `CC(NNc1ccccc1)=C1C(=O)NC(=O)NC1=O`, the remaining compound was 61.5%.
`Cc1ccc(C[C@H](NCc2ccccc2)c2cccs2)cc1` has a remaining compound of 0.013%.
The remaining compound of `O=C(CCc1ccsc1)Nc1ccc2c(c1)CNCC2` is reported as 71.6%.

Other studies, line by line
Effect on: cell-free assay
Method: competition with immobilised ligand
The remaining binding of `C[C@@H]1CN(c2cc(-c3n[nH]c4ccc(OC5(C)CC5)cc34)ncn2)C[C@H](C)O1` is reported as 94% (CDPK1 (Plasmodium falciparum, UniProt P62344); 0.1 µM).
For `CN(C)CC#Cc1ccc(OCCCc2sc(N3CCc4cccc(C(=O)Nc5nc6ccccc6s5)c4C3)nc2C(=O)O)c(F)c1`, the remaining binding was 100% (CRK2 (Plasmodium falciparum, UniProt P61075); 1 µM).

For quick reference, copied from above (series 1):
L929 RIPK3 knockout; 50 µM, together with: zVAD — viability: 64.2% and 62.8% and 63.5% and 62.1% and 66.7%.
